# Published values collected from several papers.
# Lines come from different studies, so protocols differ. ± gives the spread as reported.
# Sample: plasma
Compound,assay,system,setting,scale,quantity,result
CS(=O)(=O)c1ccc([C@@H](O)[C@@H](CF)NC(=O)C(Cl)Cl)cc1,,chicken (Arbor Acres),"oral, 20 mg/kg, added: quercetin 20 mg/kg pretreatment",,AUC(0-t),41700 ± 3630 ng·h/mL
COc1nnc2ccc(N3CCC(c4ccc(OCCN5CCN(C)C(=O)[C@H]5C)cc4)CC3)nn12,,patients,"oral, 20 mg twice daily, single dose, monotherapy",,AUC(0-t),0.391 µM·h
CO[C@H]1CC[C@H](N2C(=O)CNc3ncc(-c4ccc(C(C)(C)O)nc4)nc32)CC1,,patients,"oral, 30 mg, day 15, geometric mean",,AUC(0-t),1020 ng·h/mL
COc1ccc([C@@H](O)c2cc(-c3ncnc4cc(N5CCOCC5)ccc34)c(F)cc2Cl)nn1,mixed model,healthy volunteers,"oral, 100 mg, fasted tablet reference arm",,AUC(0-t) geometric LS mean,1040 ng·h/mL
N#CCNC(=O)c1ccc(-c2ccnc(Nc3ccc(N4CCOCC4=O)cc3)n2)cc1,,healthy volunteers,added: rifampin multiple-dose,baseline: with rifampin over alone,AUC(0-t) geometric mean ratio,105%
C[C@@](Cc1ccc(O)c(O)c1)(NN)C(=O)O,,female Parkinson's disease patients,"oral, dose not given, 3 h, median",,AUC(0-t),171 ng·h/mL
C[C@@H](N)C1CCN(S(=O)(=O)c2cccc3cnccc23)CC1,,"healthy volunteers, fasted","oral, 25 mg",,AUC(0-t),3.03 ng·h/mL
CC[C@H](Nc1ncnc2[nH]cnc12)c1oc2ccccc2c(=O)c1-c1cccc(F)c1,,"patients, Cohort-3","oral, 800 mg twice daily, added: romidepsin 14 mg/m2",,AUC(0-t),31700 ± 24000 ng·h/mL

# For quick reference, copied from above:
Compound,assay,system,setting,scale,quantity,result
COc1nnc2ccc(N3CCC(c4ccc(OCCN5CCN(C)C(=O)[C@H]5C)cc4)CC3)nn12,,patients,"oral, 20 mg twice daily, single dose, monotherapy",,AUC(0-t),0.391 µM·h
